Assay results of several laboratories.
Values joined by “and” are separate records of one study, mostly repeats; a detail may differ. Numbers after ± are the reported error.
Sequence of UniProt Q6J9G0 (whole entry, looked up): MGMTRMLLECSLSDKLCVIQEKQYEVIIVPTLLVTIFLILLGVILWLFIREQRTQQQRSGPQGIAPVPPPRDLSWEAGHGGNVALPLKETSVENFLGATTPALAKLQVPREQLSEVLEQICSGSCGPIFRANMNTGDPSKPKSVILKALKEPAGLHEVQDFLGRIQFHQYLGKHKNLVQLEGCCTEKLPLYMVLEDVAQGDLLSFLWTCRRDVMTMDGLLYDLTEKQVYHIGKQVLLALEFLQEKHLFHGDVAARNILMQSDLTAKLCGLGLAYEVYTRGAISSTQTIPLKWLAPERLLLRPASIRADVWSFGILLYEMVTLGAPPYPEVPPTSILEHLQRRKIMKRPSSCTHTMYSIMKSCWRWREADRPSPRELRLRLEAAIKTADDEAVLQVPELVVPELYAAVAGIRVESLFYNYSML
Sequence of UniProt Q96SB4 (whole entry, looked up): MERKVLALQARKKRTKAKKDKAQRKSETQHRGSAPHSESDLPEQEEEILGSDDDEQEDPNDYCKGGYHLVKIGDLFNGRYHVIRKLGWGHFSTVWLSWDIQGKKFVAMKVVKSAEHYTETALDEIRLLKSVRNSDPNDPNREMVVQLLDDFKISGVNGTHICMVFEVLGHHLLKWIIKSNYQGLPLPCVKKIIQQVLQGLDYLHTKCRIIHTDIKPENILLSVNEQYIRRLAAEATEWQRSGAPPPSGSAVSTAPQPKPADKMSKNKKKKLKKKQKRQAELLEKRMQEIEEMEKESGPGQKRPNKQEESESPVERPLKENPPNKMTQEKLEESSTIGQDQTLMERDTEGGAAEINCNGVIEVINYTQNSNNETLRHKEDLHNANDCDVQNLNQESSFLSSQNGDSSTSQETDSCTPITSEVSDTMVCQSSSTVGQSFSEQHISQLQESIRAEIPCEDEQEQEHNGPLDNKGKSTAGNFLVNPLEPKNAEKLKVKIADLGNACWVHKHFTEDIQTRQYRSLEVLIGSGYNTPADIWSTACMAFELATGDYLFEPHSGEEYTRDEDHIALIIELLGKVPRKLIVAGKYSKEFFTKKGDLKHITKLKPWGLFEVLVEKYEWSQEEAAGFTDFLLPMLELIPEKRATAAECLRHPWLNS
Sequence of UniProt P97821 (whole entry, looked up): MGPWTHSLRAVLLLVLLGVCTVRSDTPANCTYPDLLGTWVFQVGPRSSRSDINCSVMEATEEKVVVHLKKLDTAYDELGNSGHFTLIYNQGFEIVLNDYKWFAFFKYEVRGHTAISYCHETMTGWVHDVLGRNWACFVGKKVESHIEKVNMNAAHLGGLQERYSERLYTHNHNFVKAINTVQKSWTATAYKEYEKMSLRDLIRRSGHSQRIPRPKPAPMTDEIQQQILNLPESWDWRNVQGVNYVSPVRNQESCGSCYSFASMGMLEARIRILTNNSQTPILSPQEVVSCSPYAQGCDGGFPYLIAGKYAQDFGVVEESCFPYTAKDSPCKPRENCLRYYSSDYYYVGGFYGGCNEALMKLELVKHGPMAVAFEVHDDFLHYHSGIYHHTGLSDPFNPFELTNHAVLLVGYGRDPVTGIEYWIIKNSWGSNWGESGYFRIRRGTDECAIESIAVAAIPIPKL
Sequence of UniProt P42336 (whole entry, unmodified, looked up): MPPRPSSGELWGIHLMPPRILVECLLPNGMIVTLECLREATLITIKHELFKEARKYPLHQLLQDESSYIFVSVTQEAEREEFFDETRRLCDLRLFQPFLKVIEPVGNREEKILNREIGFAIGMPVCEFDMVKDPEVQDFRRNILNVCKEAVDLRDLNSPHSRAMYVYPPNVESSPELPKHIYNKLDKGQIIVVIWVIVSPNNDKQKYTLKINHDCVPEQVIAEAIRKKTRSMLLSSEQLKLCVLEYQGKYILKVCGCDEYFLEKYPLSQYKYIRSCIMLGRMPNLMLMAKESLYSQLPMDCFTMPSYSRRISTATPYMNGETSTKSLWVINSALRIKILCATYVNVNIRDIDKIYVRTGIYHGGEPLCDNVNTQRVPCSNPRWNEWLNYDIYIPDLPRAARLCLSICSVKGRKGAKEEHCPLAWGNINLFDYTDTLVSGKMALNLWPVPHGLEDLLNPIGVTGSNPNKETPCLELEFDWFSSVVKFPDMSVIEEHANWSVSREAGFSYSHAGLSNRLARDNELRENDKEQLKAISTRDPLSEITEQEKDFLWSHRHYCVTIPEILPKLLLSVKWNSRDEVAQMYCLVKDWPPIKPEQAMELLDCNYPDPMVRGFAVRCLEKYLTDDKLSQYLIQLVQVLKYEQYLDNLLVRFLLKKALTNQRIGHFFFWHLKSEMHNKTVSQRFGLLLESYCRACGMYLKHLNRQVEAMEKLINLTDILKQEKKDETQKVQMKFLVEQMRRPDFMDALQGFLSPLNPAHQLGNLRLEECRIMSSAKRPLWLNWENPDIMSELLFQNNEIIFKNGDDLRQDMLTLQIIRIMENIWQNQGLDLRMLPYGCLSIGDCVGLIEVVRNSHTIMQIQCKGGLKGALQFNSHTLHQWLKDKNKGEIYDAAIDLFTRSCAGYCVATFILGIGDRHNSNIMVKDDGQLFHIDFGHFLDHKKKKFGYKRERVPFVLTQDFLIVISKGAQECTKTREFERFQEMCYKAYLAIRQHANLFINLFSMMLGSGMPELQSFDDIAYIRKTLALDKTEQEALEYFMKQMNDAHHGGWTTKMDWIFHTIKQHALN
Sequence of UniProt P07948 (whole entry, looked up): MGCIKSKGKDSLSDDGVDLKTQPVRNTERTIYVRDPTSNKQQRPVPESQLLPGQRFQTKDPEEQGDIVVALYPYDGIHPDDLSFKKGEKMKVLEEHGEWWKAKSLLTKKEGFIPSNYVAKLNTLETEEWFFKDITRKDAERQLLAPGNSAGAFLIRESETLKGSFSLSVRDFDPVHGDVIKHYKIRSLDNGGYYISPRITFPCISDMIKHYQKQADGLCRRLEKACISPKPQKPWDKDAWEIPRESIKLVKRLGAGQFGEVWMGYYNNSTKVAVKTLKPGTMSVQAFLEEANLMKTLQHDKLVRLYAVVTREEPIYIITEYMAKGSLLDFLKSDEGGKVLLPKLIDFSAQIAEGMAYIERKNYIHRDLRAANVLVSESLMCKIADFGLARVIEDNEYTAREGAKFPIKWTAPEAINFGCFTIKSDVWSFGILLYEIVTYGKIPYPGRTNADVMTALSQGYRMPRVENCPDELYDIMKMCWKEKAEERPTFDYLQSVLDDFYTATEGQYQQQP
Sequence of UniProt Q14289 (whole entry, looked up): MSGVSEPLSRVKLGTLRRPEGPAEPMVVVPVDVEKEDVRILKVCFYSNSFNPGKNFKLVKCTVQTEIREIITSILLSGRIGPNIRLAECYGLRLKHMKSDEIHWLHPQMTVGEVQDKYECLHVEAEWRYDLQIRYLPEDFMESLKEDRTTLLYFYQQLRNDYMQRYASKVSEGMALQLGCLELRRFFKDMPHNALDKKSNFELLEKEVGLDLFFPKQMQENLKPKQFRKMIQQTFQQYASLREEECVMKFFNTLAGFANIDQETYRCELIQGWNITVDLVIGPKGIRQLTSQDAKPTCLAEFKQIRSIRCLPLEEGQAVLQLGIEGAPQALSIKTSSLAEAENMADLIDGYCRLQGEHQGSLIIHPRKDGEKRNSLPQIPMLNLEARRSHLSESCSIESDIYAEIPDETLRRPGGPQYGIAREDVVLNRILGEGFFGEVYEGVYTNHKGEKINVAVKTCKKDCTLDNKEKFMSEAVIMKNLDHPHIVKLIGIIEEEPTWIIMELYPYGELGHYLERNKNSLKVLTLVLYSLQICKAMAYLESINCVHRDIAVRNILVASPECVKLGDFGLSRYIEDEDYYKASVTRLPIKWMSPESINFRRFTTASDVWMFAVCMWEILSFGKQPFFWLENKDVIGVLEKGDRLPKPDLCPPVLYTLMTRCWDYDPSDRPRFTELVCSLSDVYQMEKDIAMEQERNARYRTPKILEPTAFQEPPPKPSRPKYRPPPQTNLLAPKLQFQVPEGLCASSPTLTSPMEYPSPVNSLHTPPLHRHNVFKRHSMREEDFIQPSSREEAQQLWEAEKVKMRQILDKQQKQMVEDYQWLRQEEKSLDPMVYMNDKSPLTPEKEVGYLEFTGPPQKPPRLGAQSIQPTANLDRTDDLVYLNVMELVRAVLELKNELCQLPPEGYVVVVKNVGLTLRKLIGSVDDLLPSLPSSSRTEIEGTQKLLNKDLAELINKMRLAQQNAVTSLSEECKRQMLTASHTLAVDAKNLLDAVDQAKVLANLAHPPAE
Sequence of UniProt Q9Z1M0 (whole entry, unmodified, looked up): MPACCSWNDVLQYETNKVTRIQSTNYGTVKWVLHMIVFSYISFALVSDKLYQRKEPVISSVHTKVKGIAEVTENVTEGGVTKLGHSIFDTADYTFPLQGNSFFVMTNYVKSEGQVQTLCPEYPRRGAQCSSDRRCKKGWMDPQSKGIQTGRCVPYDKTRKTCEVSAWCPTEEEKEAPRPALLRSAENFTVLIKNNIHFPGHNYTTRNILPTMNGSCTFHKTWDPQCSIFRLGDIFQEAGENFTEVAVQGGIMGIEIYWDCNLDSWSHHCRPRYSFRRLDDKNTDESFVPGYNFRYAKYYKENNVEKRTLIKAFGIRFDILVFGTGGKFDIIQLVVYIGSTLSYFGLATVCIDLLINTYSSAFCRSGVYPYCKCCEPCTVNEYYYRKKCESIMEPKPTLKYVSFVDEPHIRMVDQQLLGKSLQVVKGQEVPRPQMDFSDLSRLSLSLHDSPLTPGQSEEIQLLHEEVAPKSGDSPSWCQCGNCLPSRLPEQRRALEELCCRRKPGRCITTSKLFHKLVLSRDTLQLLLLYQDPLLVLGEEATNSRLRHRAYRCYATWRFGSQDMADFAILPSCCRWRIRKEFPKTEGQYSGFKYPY

SMILES | target | assay | system | setting | scale | remaining activity
Cc1cccc(C)c1C(=O)OCC(=O)[C@H](CCCCN)NC(=O)[C@H](CCCNC(=N)N)NC(=O)OCc1ccccc1 | Ctsc (Mus musculus, UniProt P97821) | inhibitor |  | 0.1 µM, added: AMC fluorogenic substrate | baseline: untreated | 100%
Cc1cc(NC(=O)c2cccc(NC(=O)/C=C/CN(C)C)c2)ccc1Nc1nccc(-c2cccnc2)n1 | Mitogen-activated protein kinase 8, phosphorylated (MAPK8, Homo sapiens, UniProt P45983) | enzyme activity after dialysis, inhibitor |  | 10 µM, 1 days, unit not given | baseline: no inhibitor | 0.031
O=C(O)c1ccc(Nc2ncc3c(n2)-c2ccc(Cl)cc2C(c2c(F)cccc2F)=NC3)cc1 | EphB2(h) | kinase activity |  | 1 µM |  | 69%
C=CC[C@@H]1c2ccc(OC)c(OC)c2CN2CCc3cc4c(cc3[C@H]12)OCO4 | P2X purinoceptor 7 (P2rx7, Mus musculus, UniProt Q9Z1M0) | ATP-evoked current, inhibitor, whole-cell patch clamp | HEK293 transfected | 30 µM |  | 94.3%
COc1cc(-c2cncc3c2CN(C)Cc2cc(N4CCNCC4)ccc2-3)cc(OC)c1OC | ULK2 (Homo sapiens, UniProt Q8IYT8) | kinase activity |  | 1 µM, human enzyme, added: ATP 10 µM | baseline: DMSO control | 102%
O=S(=O)(Nc1ccc(-c2ccco2)cc1F)c1cccc(Cl)c1O | malate dehydrogenase | enzyme activity, inhibitor |  | 200 µM, pH 7.0, 1% DMSO, aggregation counter-screen |  | 85%
O=C(NC1CCC1)c1ccc2nc(-c3cccc(NS(=O)(=O)NCCN4CCCCC4)c3)cn2c1 | PIK3CA (Homo sapiens, UniProt P42336, H1047Y) | enzyme activity |  | 10 µM |  | 100%
O=C(O)c1sccc1S(=O)(=O)NCCn1ccc2c(Br)cccc21 | malate dehydrogenase | enzyme activity, inhibitor |  | 200 µM, pH 7.0, 1% DMSO, aggregation counter-screen |  | 144%
COc1cc(F)ccc1-c1ncnc(Nc2cccc(C[S@](C)(=N)=O)c2)n1 | EPHA7 (Homo sapiens, UniProt Q15375) | kinase activity |  | 10 µM, added: 10 µM ATP |  | 67%
Cc1cc(Nc2cc(N3CCN(C)CC3)nc(Sc3ccc(NC(=O)C4CC4)cc3)n2)[nH]n1 | PTK2B (Homo sapiens, UniProt Q14289) | kinase activity, KinaseProfiler |  | 0.03 µM, species human | baseline: control | 88%
CC(Cc1c(F)cccc1F)NS(=O)(=O)c1ccoc1C(=O)O (stereo not shown) | malate dehydrogenase | enzyme activity, inhibitor |  | 200 µM, pH 7.0, 1% DMSO, aggregation counter-screen |  | 110%
CNc1ncc2c(/C=C/C(=O)N3CCC(OC)CC3)nn(Cc3cccc(C(F)(F)F)c3)c2n1 | SRPK1 (Homo sapiens, UniProt Q96SB4) | kinase activity, inhibitor |  | 1 µM | baseline: untreated control | 102%
CSc1ccc(CNS(=O)(=O)c2c(C)oc(C)c2C(=O)O)cc1C | malate dehydrogenase | enzyme activity, inhibitor |  | 200 µM, pH 7.0, 1% DMSO, aggregation counter-screen |  | 106%
COc1cc(Nc2ncc3c(n2)-c2ccc(Cl)cc2C(c2c(F)cccc2OC)=NC3)ccc1C(=O)O | BTK | kinase activity |  | 1 µM |  | 51%
C=CC(=O)N1CCC[C@@H](n2nc(-c3ccc(Oc4ccccc4)cc3)c3c(N)ncnc32)C1 | Tyrosine-protein kinase STYK1 (STYK1, Homo sapiens, UniProt Q6J9G0) |  |  | 0.1 µM |  | 239%
COc1ccc2cc(CNC(=O)C3(C(=O)O)CCC3)ccc2c1 | malate dehydrogenase | enzyme activity, inhibitor |  | 200 µM, pH 7.0, 1% DMSO, aggregation counter-screen |  | 79%
NC/C(=C\F)COc1cccc(Cn2c(=S)[nH]c(=O)c3[nH]cnc32)c1 | Lactoperoxidase (LPO, Bos taurus, UniProt P80025) | H2O2 electrode |  | 5 µM | baseline: control | 61.8% and 40.2% and 77.8%
COc1ccc(F)cc1C(=O)NCc1ccc(-c2nn([C@@H](C)C(F)(F)F)c(N)c2C(N)=O)cc1 | LYN (Homo sapiens, UniProt P07948) | kinase activity, inhibitor, HotSpot radiometric |  | 1000 nM, added: ATP at Km |  | 77.1 ± 2.6%
CNC(=O)c1ccc(NS(=O)(=O)c2cc(Cl)cc(Cl)c2O)c(Cl)c1 | malate dehydrogenase | enzyme activity, inhibitor |  | 200 µM, pH 7.0, 1% DMSO, aggregation counter-screen |  | 62%

For quick reference, copied from above:
SMILES | target | assay | system | setting | scale | remaining activity
COc1cc(Nc2ncc3c(n2)-c2ccc(Cl)cc2C(c2c(F)cccc2OC)=NC3)ccc1C(=O)O | BTK | kinase activity |  | 1 µM |  | 51%
C=CC(=O)N1CCC[C@@H](n2nc(-c3ccc(Oc4ccccc4)cc3)c3c(N)ncnc32)C1 | Tyrosine-protein kinase STYK1 (STYK1, Homo sapiens, UniProt Q6J9G0) |  |  | 0.1 µM |  | 239%
COc1ccc2cc(CNC(=O)C3(C(=O)O)CCC3)ccc2c1 | malate dehydrogenase | enzyme activity, inhibitor |  | 200 µM, pH 7.0, 1% DMSO, aggregation counter-screen |  | 79%
